Published values pooled from the literature.
A part holds a random share of what one study measured.

Set 1 — technique: universal PBM; form: double-stranded DNA, one strand shown; matrix: in vitro; concentration: 600 nM; direction: higher = stronger binding
Target: Sal-like protein 4, full length isoform A (SALL4, Homo sapiens, UniProt Q9UJQ4, residues 1-1053)
Chain of UniProt Q9UJQ4 (whole entry, looked up): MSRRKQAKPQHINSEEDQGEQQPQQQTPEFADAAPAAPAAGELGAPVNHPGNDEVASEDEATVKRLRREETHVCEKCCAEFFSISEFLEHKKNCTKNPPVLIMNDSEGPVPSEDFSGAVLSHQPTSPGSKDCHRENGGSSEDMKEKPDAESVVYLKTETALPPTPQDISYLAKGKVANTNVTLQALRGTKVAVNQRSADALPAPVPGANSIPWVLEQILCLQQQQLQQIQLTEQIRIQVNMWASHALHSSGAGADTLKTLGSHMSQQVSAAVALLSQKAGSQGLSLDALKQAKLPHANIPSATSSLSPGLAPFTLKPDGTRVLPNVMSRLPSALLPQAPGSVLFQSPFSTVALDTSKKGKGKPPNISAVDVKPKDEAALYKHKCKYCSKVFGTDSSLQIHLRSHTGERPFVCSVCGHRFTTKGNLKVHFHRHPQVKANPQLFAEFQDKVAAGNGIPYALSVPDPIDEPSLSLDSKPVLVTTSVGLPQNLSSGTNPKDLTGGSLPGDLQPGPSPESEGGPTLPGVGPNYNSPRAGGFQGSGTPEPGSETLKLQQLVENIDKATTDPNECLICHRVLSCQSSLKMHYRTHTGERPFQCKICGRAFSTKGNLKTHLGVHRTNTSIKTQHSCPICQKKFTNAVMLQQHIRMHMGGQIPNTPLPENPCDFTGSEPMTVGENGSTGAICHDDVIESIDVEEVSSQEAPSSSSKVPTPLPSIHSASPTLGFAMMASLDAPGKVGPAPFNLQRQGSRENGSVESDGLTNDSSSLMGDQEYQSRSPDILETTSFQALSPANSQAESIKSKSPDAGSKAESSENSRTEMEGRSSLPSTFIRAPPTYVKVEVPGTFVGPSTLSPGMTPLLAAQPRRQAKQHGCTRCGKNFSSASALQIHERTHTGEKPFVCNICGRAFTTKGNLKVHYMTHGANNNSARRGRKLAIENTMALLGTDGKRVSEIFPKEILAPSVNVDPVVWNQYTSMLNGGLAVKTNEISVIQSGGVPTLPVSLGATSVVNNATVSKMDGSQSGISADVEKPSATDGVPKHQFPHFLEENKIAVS
Notes: 8-mer, flanks averaged, mean of replicates
Strand	E-score
ACGGGCCG	-0.395
CCCTTAGG	-0.26
CCCTCTAC	-0.259
AGAATGAC	0.0776
CCGCTGGC	-0.294
CGCCACAC	-0.219
ATTCTGGA	0.191
CACACTGG	-0.257
AAAATGAC	0.207
TAAAACGA	0.0899
ACCTTTTC	0.106
ATCATAGC	0.184
AGTGCGGC	-0.318
TAATCCCA	0.0626
TGGGAAAA	0.0981
AAGATGCA	0.0921
CCGTGTCC	-0.297
ACCCGAGA	-0.267
ATGCCACC	-0.236
GCTGTTAA	0.12
AAGGTGCT	-0.0679
CATTGGCA	0.0229
TAAGAGTA	0.299
CTACAGAC	-0.0389
AGGGTGAC	-0.225

Set 2 — technique: protein-binding microarray; form: double-stranded DNA, one strand shown; matrix: in vitro; concentration: 2540 nM top; notes: 60-bp whole probe; added: salmon DNA 0.4 mg/ml; relative to: random background probes; direction: higher = stronger binding; constant ends, left off below: GCCTAGCAC … GTCTTGATTCGCTTGACGCTGCTG
Target: Interferon regulatory factor 3, full length, phosphomimetic (IRF3, Homo sapiens, UniProt Q14653, residues 1-427, S386D/S396D/S398D/S402D/T404D/S405D)
Residues (chain): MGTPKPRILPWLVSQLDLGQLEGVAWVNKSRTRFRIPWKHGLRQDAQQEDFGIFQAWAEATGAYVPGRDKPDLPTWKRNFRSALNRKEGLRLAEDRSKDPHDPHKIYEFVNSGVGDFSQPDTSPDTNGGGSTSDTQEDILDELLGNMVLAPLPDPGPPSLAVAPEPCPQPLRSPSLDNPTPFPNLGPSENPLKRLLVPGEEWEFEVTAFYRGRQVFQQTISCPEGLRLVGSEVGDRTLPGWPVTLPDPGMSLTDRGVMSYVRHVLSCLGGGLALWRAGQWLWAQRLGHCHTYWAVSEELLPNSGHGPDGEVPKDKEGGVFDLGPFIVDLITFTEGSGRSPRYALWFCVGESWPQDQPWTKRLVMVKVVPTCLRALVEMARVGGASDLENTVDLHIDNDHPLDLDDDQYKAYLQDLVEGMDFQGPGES
Strand	fitted relative affinity [z-score]
TTAGGTATCCTTTTCGTTTAGTGCTAG	8.4
TTAGATATCAGATTCGATTAGTGCTAG	2.74
GAGGGTTCCGGTTTCGGGACGTGCTAG	5.75
GAATGTAACTCCTATCCAAGTGTGCTA	0.367
TTAGGTTTCGGGTCTCGGTTAGTGCTA	5.86
TTAGATTTCGTGACTGGATTAGTGCTA	0.322
GACGACCTCAGTTTCGAGACGTGCTAG	1.6
CTGCTCCTCTTTTTTTGGTAGTGCTAG	0.917
GACGGTTTCGACCTTCGGGACGTGCTA	3.56
GACGGTCACCTACTGCTGACGTGCTAG	0.132
TCACATTTTGTTTTTCAACTGTGCTAG	2.09
TTAGATATCGGGTATGGATTAGTGCTA	-0.0528
GAGGATATCAGTATCGAGACGTGCTAG	0.819
TTAGATATCTGTATCGATTAGTGCTAG	1.08
CTTGGCAAGATGAGGAAGATGTGCTAG	-0.832
TTAGAACTGAGACTCGATTAGTGCTAG	-0.464
GACGATATGGGGTTTCGAGACGTGCTA	0.532
GACGGCTTCGACTTTCGGGACGTGCTA	-0.166
GACGGTTTCCTCTTCCTGACGTGCTAG	5.29
TATGCTTTCTTTAACTCATTGTGCTAG	1.18

Set 3 — technique: protein binding microarray; form: double-stranded DNA, one strand shown; matrix: in vitro; concentration: not given; relative to: not given; direction: higher = stronger binding
Target: Histone acetyltransferase KAT6A, winged helix 1, GST fusion (KAT6A, Homo sapiens, UniProt Q92794, residues 1-85)
Notes: 8-mer, flanks averaged, mean of 2 arrays, mostly near background
Construct (chain): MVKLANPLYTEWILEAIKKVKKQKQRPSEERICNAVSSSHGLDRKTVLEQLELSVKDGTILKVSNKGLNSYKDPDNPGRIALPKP
Strand	E-score
AACAAAGT	-0.12
AGCTAATC	-0.05
CTCTTTCA	-0.0922
ACGGGAGT	0.19
TGAGGCCA	-0.189
AGGACCTG	-0.036
AGGAGACG	0.0761
CATTCGGC	0.176
ATGTTGTG	-0.102
CAGGTGAG	-0.263
AAATTCAG	-0.126
ATTAGACG	0.0168
GATTAGAA	-0.234
ACGTTCTA	-0.108
GAAATGGA	-0.179
AACGAACG	0.0556
ATTAGGAG	-0.192
ATCCGTCG	0.345
AACCCACC	-0.0385
GCCTGTTA	-0.119
CCCGCCGG	0.476

Set 4 — technique: RNA Bind-n-Seq; form: RNA; matrix: in vitro; concentration: not given; notes: RNA with constant flanks, ends assumed; relative to: input RNA pool; direction: higher = stronger binding
Target: RING finger protein unkempt homolog, zinc fingers 1-6, GST-SBP tag (UNK, Homo sapiens, UniProt Q9C0B0, residues 30-357)
Chain of UniProt Q9C0B0 (30-357, looked up): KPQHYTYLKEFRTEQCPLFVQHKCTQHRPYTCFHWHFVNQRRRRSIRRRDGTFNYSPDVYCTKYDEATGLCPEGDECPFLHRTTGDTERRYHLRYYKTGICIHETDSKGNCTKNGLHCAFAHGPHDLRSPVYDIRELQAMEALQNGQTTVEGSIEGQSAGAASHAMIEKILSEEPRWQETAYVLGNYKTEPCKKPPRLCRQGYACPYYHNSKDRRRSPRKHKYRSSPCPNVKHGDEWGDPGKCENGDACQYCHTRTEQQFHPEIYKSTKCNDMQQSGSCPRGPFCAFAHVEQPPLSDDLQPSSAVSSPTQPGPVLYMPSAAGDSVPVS
Strand	bound/input enrichment [ratio]
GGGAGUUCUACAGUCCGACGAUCGAUGCCAUUUAUGGACACCCCCUCUUCCCUCUCUUAGCACUGAUUUUUGAGAAAUGUGAAUCCGCUACUUGUACCCCCCGCGAGCCGGGGGUGGCGGGCGGGGACGUCUGCUCGUCAGAGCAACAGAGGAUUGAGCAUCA	4.89
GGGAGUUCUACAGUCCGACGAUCACAGAGCCGAGUAGCAAUAACAGUGAUGAUUGUCCAGGCAAGAGUGAAGACGACGAACACUCCGACCAAAUUCAAAGUAAAGACUCCUGUGAUGAGGGAAAUAAAGUGAACAGUAAUGUCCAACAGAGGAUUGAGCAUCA	0.186
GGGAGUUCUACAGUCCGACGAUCACUAACUCCUACUGCCGACGAACCGAAAAAUAAUUAAUGCAGAGGAGAUUUAUGUCUCCGCCAUAACUCCAGUUGUACAACUCAAUCGCCCCAUUCUCUUUUACGGUUCAAAAUGUACUGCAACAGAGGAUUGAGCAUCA	0.202
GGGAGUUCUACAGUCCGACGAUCCAGGGACGCUUUGAUGUAAAAAUUGAAAUUAAGAGCUGAUCACAAGCACAAAUCUUUCCCACCCGCCAUUUAAUAAGUUAAAAAAAGAUACACAAACCUACUAGUCUUGAACAAACUGUCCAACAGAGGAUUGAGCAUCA	1.15
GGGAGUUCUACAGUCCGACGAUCAAUACUGUUCCUGGAUAUGACUUUUUGGUGAAUUCUGUUUGGCCACAAAUAGUACAAGGAUCCGAAGAAAAGUUACCCUCGCUUUUUAAUCCUGGGAAUCCCGAUGCAUUUCAUGAGAAACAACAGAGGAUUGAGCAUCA	0.211
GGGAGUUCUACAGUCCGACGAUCACCUUCCUUGUAUUUUCCAAGGCUGAACUUGGUGCUCUUCCUGAUGAUUUCAUUGACAGUUCCGAAAAGACAGAUGAUGACAAGUAUAAAAUUACCUUAAAAUAUCCACACUAUUUCCCUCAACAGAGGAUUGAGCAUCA	0.584
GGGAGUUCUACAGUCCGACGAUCGGGCCUCUGUUCAAUACUGACUAUGACAUCCUUAAAAGCAACUUGCAGAACUGCAGCAAAUUCCGUGCUAUACAAUGUGCAGCUGCCGUCCCUAGAGCUCCUGCUGAAUCCUCUUCGUCUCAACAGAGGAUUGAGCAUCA	0.25
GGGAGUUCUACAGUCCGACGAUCCAUGUUUAUAAUGUGCACAGAAAAAGCUUGAGAAUGAUAAUUUUGGUUUAAAUGUGCUGGUCCGUUGAUGUUAUGACUACUUUAAAUUUUAAGGAUUGUGACACACUCCUACUAUUGAAACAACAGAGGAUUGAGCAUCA	0.285

Excerpt of the above (set 2):
Strand	fitted relative affinity [z-score]
GACGGTTTCGACCTTCGGGACGTGCTA	3.56
TATGCTTTCTTTAACTCATTGTGCTAG	1.18
CTGCTCCTCTTTTTTTGGTAGTGCTAG	0.917
TCACATTTTGTTTTTCAACTGTGCTAG	2.09
TTAGATTTCGTGACTGGATTAGTGCTA	0.322
